# Results of several laboratories.
# Every numbered part comes from another study and shows a few of its results, in no order. Substitutions count along the parent as printed.

# Block 1
# Target: Histone acetyltransferase KAT6A, both winged helices, GST fusion (KAT6A, Homo sapiens, UniProt Q92794, residues 1-181)
# Technique: protein binding microarray
# Form: double-stranded DNA, one strand shown
# Matrix: in vitro
# Concentration: not given
# Notes: 8-mer, flanks averaged, mean of 2 arrays, mostly near background
# Relative to: not given
# Direction: higher = stronger binding
# Residues (chain): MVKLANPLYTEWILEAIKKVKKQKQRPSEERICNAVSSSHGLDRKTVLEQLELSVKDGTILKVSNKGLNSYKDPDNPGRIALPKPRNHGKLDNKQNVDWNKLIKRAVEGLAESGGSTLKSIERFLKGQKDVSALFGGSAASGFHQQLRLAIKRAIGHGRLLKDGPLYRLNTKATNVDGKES
Strand,E-score
GGCTATGA,-0.00744
AGCTGCCC,0.00873
CGTTCTAC,0.0434
CCCTGCTA,-0.138
CGCGTTGA,0.286
ACTATATA,-0.0602
ACCGGCCG,0.318
AAGAGTTG,-0.145
AGCATACG,0.0195
GCCTTTAA,0.0134
GGGGCCCA,-0.12
AACGGGTG,0.227
CTCTAAGC,0.025
CGCGGGGC,0.259
AACTGGCA,-0.159
ACGGCCGG,0.302
TAGCTTAA,-0.0615
CAACAGAG,-0.0431
AACAGACA,-0.0172
AGGTCTCC,0.0943
CATATGTA,-0.124
ATGCATGG,-0.0504

# Block 2
# Target: RNA binding protein fox-1 homolog 2, RRM domain, GST-SBP tag (RBFOX2, Homo sapiens, UniProt O43251-10, residues 100-194)
# Technique: RNA Bind-n-Seq
# Form: RNA
# Matrix: in vitro
# Concentration: 365 nM
# Notes: natural RNA segment, single round, ends assumed
# Relative to: no-protein control
# Direction: higher = stronger binding
# Shared flanks, not repeated: GGGAGUUCUACAGUCCGACGAUC … UGGAAUUCUCGGGUGCCAA
# Target sequence (chain): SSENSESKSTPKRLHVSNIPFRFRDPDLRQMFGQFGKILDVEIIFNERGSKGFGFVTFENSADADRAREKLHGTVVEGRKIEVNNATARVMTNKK
Strand,RBNS enrichment (R)
CUCACAGCUCCUUUCUAGGUCCUUCUUUCCUCAUUGGAAGCAAAGACCUAGCCAACAACAGCACCUCAAUCUGAUACACUCCCGAUGCCACAUUUUUAACUCCUCUCGCU,0.731
GCCUCAUAAAGGGCCAGGUCUCCCCAGUACCAAGUCCUUUCCUCAUGAAGUUGUGUUGCCUCAGGCUGUUUAGGGACCAUUGCCUGUCUUGGUCACAUGAGUCUGUCUCC,0.899
UCCCGGAGACCCACCGGGAGGGCGCCGCCAUGCCUUGUACCCCCACCGUGCAGGUUGUGGCCGGUUUUCUCCGCAGGUUGAACAUGGAAAUAAAAGCAAACUUGUAUGAA,0.372
UAGCACUGAGGAUUCUUGUUCCCUUGCCUUGCCCACUGCUCCCGACCUGAAGGCUGCCAACACUCCUCUAAGGACACUGGGUCACAUGCCAGCCACCUGUUCUCGCCACC,0.948
GAAAUGUUCUCUAGGAUUCUAAAAUAGGCAGGUACUUUACUAUGUUACUGUACCCUGCAGUGUUGAUUUUUAAAAUAGAGUUUUCUGCAGUAUGCUUUUAGUCUAAGAAA,0.666
UGACUGGAGCCACAGAUACAGAAUCUGUAUUGUUCUUACUGAAACACAGCAUGGAAUUAACAUUAAACUUAAAUAAAACAAACCUAAAUUAAAAAUGCCAAAUAUCGCGC,1.13
UAAACAUAAAUAAAUUCCUGAGAGUGUCCUAUAUUUGGAUUGUGAUUUGUAGACUCAUGCUAACUUUACUGCCUCUUUUUCACACUUGUUGAAAAAUCUGUGAAGAACAU,0.361
UGAAAAAAACCCUUUUUACUUCAAAAAAAUUGUAAGCCACAUUGUUAAUAAAGUAAAAAUAAAUUCUUGGUGGUGUUUGGGUCUUUGUGUUGAAGGUCAUUCAAUAUUAU,0.55
GACCAUGUGCCCAGGGACUGCAGCCAGGUUCACUCUGCUGGGAGAGCUGGCUGGGGGGAAGGGCUUGUUCCCUACAGUGUCUGUUCUGUGAAGUUUGUUACGUGUAAGGG,0.586
UUUCUAUGUCUCCCCAAGGCUGGGGUGCUGAGCCUGCCUUCCUCACCACCUAGCCAUAGUCUCAAACCUGUGGGGAAGGAGGUUUUCUCCCUGCCCGGGAAGAGGACAGA,0.34
AGACUCCUUUGUGCUGGAACCUGGGCUCCUCCAGCUGCCAGGCAGGAGUCGGUAGGACUGUGCCUGUGCCUCCCUCAGCGGGGCCCUGGGCGGGGUUCCAAGGCCUGCGA,0.373
ACAGCACGUUACUAAAGCAGUUACAUGCAUGUUGCGCUACCCUCAUCUGGUAUAGAGACCUGCAUUUUUACCUAACCUUCUAGACUCCUGAAAGGGAGUUAAAUGAAUUC,0.67

# Block 3
# Target: PABPC1L2, full length, GST fusion (mouse, UniProt A0ABA7IW68)
# Technique: RNAcompete
# Form: RNA
# Matrix: in vitro
# Concentration: 20 nM
# Notes: 7-mer, probes averaged, single round
# Relative to: mean of 7-mers
# Direction: higher = stronger binding
# Target sequence (chain): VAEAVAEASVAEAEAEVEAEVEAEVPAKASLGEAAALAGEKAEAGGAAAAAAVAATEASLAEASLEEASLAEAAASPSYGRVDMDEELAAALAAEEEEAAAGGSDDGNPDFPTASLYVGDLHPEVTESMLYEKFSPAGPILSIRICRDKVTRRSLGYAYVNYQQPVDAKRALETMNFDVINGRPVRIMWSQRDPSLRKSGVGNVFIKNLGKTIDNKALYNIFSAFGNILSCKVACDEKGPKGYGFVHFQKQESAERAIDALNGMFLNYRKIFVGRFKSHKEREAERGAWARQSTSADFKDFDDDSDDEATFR
Strand,7-mer Z-score
AAGUACU,0.0932
AAAACAG,8.77
UAUGAUA,-0.0971
UCCGGAC,-0.307
GCCCUAC,-0.306
GUUUUGU,-0.463
CCAUGUU,-0.336
AAUGUCA,0.0116
GGGAGUU,-0.079
GCUCGUA,-0.0953
CCUCAAU,-0.224
GUACCGC,-0.213
GAGGCAU,-0.0863
AAUGUUU,-0.188
AUGUCGC,-0.387
CCCGGGU,-0.238
CGCGAAG,-0.161
AUCCAAU,-0.0174
AUCGACU,-0.219
UGCUCCA,-0.387
GCAAUGG,0.109
UUCGUCC,-0.518
GGUUUUU,-0.271
UUCUGUC,-0.51
ACGCGAC,-0.0373

# Block 4
# Target: POU domain, class 5, transcription factor 1, POU domain (Pou5f1, Mus musculus, UniProt P20263, residues 131-289)
# UniProt P20263, sequence (131-289, looked up): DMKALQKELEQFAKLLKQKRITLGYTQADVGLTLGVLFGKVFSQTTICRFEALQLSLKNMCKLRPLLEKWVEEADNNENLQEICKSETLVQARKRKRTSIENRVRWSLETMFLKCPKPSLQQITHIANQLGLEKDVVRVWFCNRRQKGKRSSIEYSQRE
# Technique: Spec-seq
# Form: double-stranded DNA, one strand shown
# Matrix: in vitro
# Concentration: not given
# Notes: whole probe, mean of replicates
# Relative to: not given
# Direction: lower = stronger binding
# Shared flanks, not repeated: GAGTCGTCTCGTCAGCAC … CCGTAGAGCACTCAGGTC
Strand,relative binding energy
ATGCATGC,-0.463 ln ratio
ATGCAATG,-0.0403 ln ratio
ATGCAATA,-0.211 ln ratio
ATGCAAAG,-0.524 ln ratio
ATGCAAGG,-0.0443 ln ratio
ATTTTCAT,-0.0381 ln ratio
ATTATAAT,-0.632 ln ratio
ATGCAGAC,-0.105 ln ratio
ATGCACAT,-0.0589 ln ratio
ATGCTTGT,0.674 ln ratio
TTCCTAAT,0.572 ln ratio
ATGCACAG,0.0511 ln ratio
ATGCTATA,0.343 ln ratio
ATCTAGAT,0.486 ln ratio
TCCTTAAT,0.673 ln ratio
ATGCGGTC,0.515 ln ratio
ATCAGTAT,0.402 ln ratio
CTCTTAAT,0.856 ln ratio
TAGATAAT,0.599 ln ratio
ATGCGTGC,0.357 ln ratio
ATGCTCGG,0.79 ln ratio
ATGAATAT,-2.24 ln ratio
ATGCAGCG,0.358 ln ratio

# Block 5
# Target: Interferon regulatory factor 7, full length, phosphomimetic (IRF7, Homo sapiens, UniProt Q92985, residues 1-503, S101K/S471D/S472D/S475D/S476D/S477D/S483D/S484D/S487D)
# Technique: protein-binding microarray
# Form: double-stranded DNA, one strand shown
# Matrix: in vitro
# Concentration: 250 nM
# Notes: 60-bp whole probe
# Together with: salmon DNA 0.4 mg/ml
# Relative to: random background probes
# Direction: higher = stronger binding
# Shared flanks, not repeated: GCCTAGCAC … GTCTTGATTCGCTTGACGCTGCTG
# Construct (chain): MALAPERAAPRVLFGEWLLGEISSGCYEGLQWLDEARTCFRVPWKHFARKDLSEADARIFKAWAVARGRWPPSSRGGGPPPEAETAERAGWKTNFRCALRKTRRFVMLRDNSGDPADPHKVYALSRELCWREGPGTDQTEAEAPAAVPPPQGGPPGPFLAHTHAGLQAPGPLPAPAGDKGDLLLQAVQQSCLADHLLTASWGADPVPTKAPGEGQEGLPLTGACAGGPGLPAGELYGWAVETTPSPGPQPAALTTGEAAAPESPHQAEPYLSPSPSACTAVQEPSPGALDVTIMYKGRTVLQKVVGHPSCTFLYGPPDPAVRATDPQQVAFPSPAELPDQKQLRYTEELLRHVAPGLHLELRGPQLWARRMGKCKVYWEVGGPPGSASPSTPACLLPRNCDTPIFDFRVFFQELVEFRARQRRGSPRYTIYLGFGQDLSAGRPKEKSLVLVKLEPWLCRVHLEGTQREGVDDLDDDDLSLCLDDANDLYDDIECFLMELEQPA
Strand,log fluorescence
GACGGTTTCCACTTTCGGGACGTGCTA,5.21 z-score
GACGGTTTCGGTCTCGGGTCGTGCTAG,8.73 z-score
GCCGGACTGCTACTGCTGACGTGCTAG,-0.814 z-score
GAGGATTTCAGTTTCGAGACGTGCTAG,4.63 z-score
TTAGGTCTAGGTATCGGTTAGTGCTAG,1.09 z-score
AAGTAAAATGCAAAGAGGAAGTGCTAG,-0.197 z-score
GACGGTCTCCTTTTCCTCACGTGCTAG,1.49 z-score
GACGGTGTCCTTATCCTGACGTGCTAG,-0.382 z-score
CCCTAGGGGCTCTCAGAGATGTGCTAG,-1.31 z-score
TCCAATTACCTTTTCACTTTGTGCTAG,1.22 z-score
GACGATTTCAGTTTCAAGACGTGCTAG,1.01 z-score
GACGGTTTCGACCTTCGGGACGTGCTA,5.46 z-score
GACGGTTTCGGGATCGGGACGTGCTAG,7.39 z-score
TTAGAACTTAGTTTCGATTAGTGCTAG,10.1 z-score
TTAGAACTGGGGTACCGATTAGTGCTA,0.186 z-score
TCACAATTCTTTTTATGACTGTGCTAG,0.972 z-score
TTAGGACTCGGGTTTCGGTTAGTGCTA,8.1 z-score

# Block 6
# Target: CCNA1, cyclin fold, Cln2 fusion (human)
# Technique: yeast growth competition, sequencing
# Matrix: yeast
# Notes: weak parent motif
# Relative to: not given
# Direction: higher = stronger binding
# Starting sequence: E2F7 docking peptide (human); SSAQRRLEIPSGG
Variant,normalised enrichment score
R5A,0.478
S2A,0.124
R5K,-0.13
Q4A,0.249
I9A,0.238
G12A,-0.109
P10A,0.364
R5K I9F,0.0242
